Results of several laboratories.
Organism: Staphylococcus aureus

Structure (SMILES)	test	system	setting	MIC
CN[C@@H]1[C@H](O)[C@H](NC)[C@H]2O[C@]3(O)[C@H](O[C@@H]2[C@H]1O)O[C@H](C)C[C@H]3NC(=O)Cc1ccc(Cl)cn1	microbial growth, broth dilution	8325	–	12.5 µg/mL
COc1ccc2c(c1OC)C[NH+]1CCc3cc4c(cc3C1C2)OCO4.[Cl][Fe-]([Cl])([Cl])[Cl] (stereo not shown)	–	–	24 h, 37 °C	> 1600 µM
CN[C@H](CC(C)C)C(=O)N[C@H]1C(=O)N[C@@H](CC(N)=O)C(=O)N[C@H]2C(=O)N[C@H]3C(=O)N[C@H](C(=O)N[C@H](C(=O)O)c4cc(O)cc(O)c4-c4cc3ccc4O)[C@H](O)c3ccc(c(Cl)c3)Oc3cc2cc(c3O[C@@H]2O[C@H](CO)[C@@H](O)[C@H](O)[C@H]2O[C@H]2C[C@](C)(NCc3ccc(OCc4cn(CC(=O)N[C@H](C(=O)N[C@@H](CCN)C(=O)N[C@H]5CCNC(=O)[C@H]([C@@H](C)O)NC(=O)[C@H](CCN)NC(=O)[C@H](CCN)NC(=O)[C@H](CC(C)C)NC(=O)[C@@H](CC(C)C)NC(=O)[C@H](CCN)NC5=O)[C@@H](C)O)nn4)c(OC)c3)[C@H](O)[C@H](C)O2)Oc2ccc(cc2Cl)[C@H]1O	broth microdilution	VISA NRS402, tryptic soy broth	20 to 24 h, 37 °C, 0.002% polysorbate 80	8 µg/mL
CC[C@H](C)[C@H](NC(=O)[C@H](Cc1c[nH]c2ccccc12)NC(=O)[C@H](Cc1ccc(O)cc1)NC(=O)[C@H](CCCCN)NC(=O)[C@H](CC(C)C)NC(=O)[C@H](CO)NC(=O)[C@@H](N)Cc1ccccc1)C(=O)N[C@@H](CCCNC(=N)N)C(=O)N[C@@H](Cc1ccc(O)cc1)C(=O)N[C@@H](CCCCN)C(=O)N[C@@H](CCCNC(=N)N)C(=O)N[C@@H](CCC(N)=O)C(=O)NCC(=O)N[C@@H](C)C(=O)N[C@@H](C)C(=O)N[C@@H](CCCNC(=N)N)C(=O)N[C@@H](Cc1ccccc1)C(N)=O	broth dilution	ATCC 25923, Mueller-Hinton broth	24 h, 37 °C	100 µM
CC[C@H](C)[C@H](NC(=O)[C@@H](CCCNC(=N)N)NC(=O)[C@H](CCCNC(=N)N)NC(=O)[C@@H]1CCCN1C(=O)[C@@H]1CCCN1C(=O)[C@H](CCCNC(=N)N)NC(=O)[C@@H]1CCCN1C(=O)[C@H](CCCNC(=N)N)NC(=O)[C@@H]1CCCN1C(=O)[C@H](CC(C)C)NC(=O)[C@H](Cc1ccc(O)cc1)NC(=O)[C@@H]1CCCN1C(=O)[C@H](Cc1ccc(O)cc1)NC(=O)[C@H](CCCCN)NC(=O)[C@H](CC(=O)O)NC(=O)[C@@H](N)C(C)C)C(=O)N[C@@H](Cc1ccc(O)cc1)C(=O)N[C@@H](CC(N)=O)C(=O)N[C@H](CCCNC(=N)N)C(N)=O	broth microdilution	DSM 6247	18 h, 37 °C, 25% MHB2	> 128 µg/mL
CC(C)C[C@@H](NC(=O)[C@@H](CCCNC(=N)N)NC(=O)[C@H](N)CCCNC(=N)N)C(=O)N[C@H](CC(C)C)C(=O)N[C@H](CCCNC(=N)N)C(=O)N[C@H](CCCCN)C(=O)N[C@H](CC(C)C)C(=O)N[C@H](CCCCN)C(=O)NCC(=O)N[C@H](CCCCN)C(=O)N[C@H](CCCCN)C(=O)N[C@H](CC(C)C)C(=O)N[C@H](Cc1ccc(O)cc1)C(=O)N[C@H](CC(C)C)C(=O)N[C@H](Cc1ccc(O)cc1)C(=O)N[C@H](Cc1ccccc1)C(=O)N[C@H](CCCCN)C(=O)N[C@H](CC(C)C)C(=O)N[C@H](CCC(N)=O)C(=O)N[C@H](CC(C)C)C(=O)N[C@H](CC(C)C)C(=O)N[C@H](CCCCN)C(=O)N[C@H](CCCCN)C(N)=O	–	KCTC 1621, Mueller-Hinton broth	added: 2.5 mM CaCl2	32 µM
N=C(N)NCCC[C@@H]1NC(=O)[C@H](CCCNC(=N)N)NC(=O)[C@@H](CCCNC(=N)N)NC(=O)[C@@H](CCCNC(=N)N)NC(=O)[C@@H](C(c2ccccc2)c2ccccc2)NC(=O)[C@H](Cc2c[nH]c3ccccc23)NC(=O)[C@@H](C(c2ccccc2)c2ccccc2)NC1=O	–	1193193, MRSA	–	8 µg/mL
Cc1ccc(NC(=O)Nc2cccc(C(=O)N3CCC(C)CC3)c2)cc1	checkerboard, item: ceftobiprole	CRB, PBP4 overexpressor	25 µM	> 64 µg/mL
CC[C@H](C)[C@H](NC(=O)[C@H](Cc1c[nH]c2ccccc12)NC(=O)[C@H](CCCCN)NC(=O)[C@H](CC(C)C)NC(=O)[C@@H](NC(=O)[C@@H](NC(=O)CNC(=O)[C@H](CCCCN)NC(=O)[C@H](Cc1c[nH]cn1)NC(=O)[C@H](CCCCN)NC(=O)[C@H](Cc1c[nH]c2ccccc12)NC(=O)[C@H](C)NC(=O)[C@H](CC(C)C)NC(=O)[C@H](CO)NC(=O)[C@@H](NC(=O)[C@H](Cc1ccc(O)cc1)NC(=O)[C@H](CCCCN)NC(=O)[C@H](CCC(N)=O)NC(=O)CNC(=O)[C@H](CCCCN)NC(=O)[C@@H](NC(=O)[C@H](C)NC(=O)[C@H](CC(C)C)NC(=O)[C@H](Cc1ccccc1)NC(=O)[C@H](CCC(N)=O)NC(=O)[C@@H](NC(=O)[C@H](CC(C)C)NC(=O)[C@H](CCCCN)NC(=O)[C@H](CCSC)NC(=O)[C@H](Cc1ccccc1)NC(=O)[C@H](C)NC(=O)[C@H](C)NC(=O)[C@@H](N)CCSC)[C@@H](C)CC)[C@@H](C)O)C(C)C)[C@@H](C)O)[C@@H](C)CC)C(=O)N[C@@H](CC(N)=O)C(N)=O	–	EMRSA 12845	24 h, 37 °C	32 µg/mL
CC(C)[C@H](NC(=O)[C@H](Cc1ccc(O)cc1)NC(=O)[C@H](CS)NC(=O)[C@@H](NC(=O)[C@H](CCCNC(=N)N)NC(=O)[C@H](Cc1ccccc1)NC(=O)[C@H](CS)NC(=O)[C@H](Cc1c[nH]c2ccccc12)NC(=O)[C@@H](N)CCCNC(=N)N)C(C)C)C(=O)NCC(=O)N[C@@H](Cc1ccccc1)C(=O)N[C@@H](CS)C(=O)N[C@@H](Cc1ccc(O)cc1)C(=O)N[C@@H](Cc1c[nH]c2ccccc12)C(=O)N[C@@H](CCCCN)C(=O)N[C@@H](CS)C(=O)N[C@@H](CCCNC(=N)N)C(=O)O	broth microdilution	ATCC 25923, Mueller-Hinton broth	16 to 20 h, 37 °C	1.1 µg/mL
CC[C@H](C)[C@H](NC(=O)[C@H](Cc1c[nH]c2ccccc12)NC(=O)[C@H](CCCNC(=N)N)NC(=O)[C@@H]1CCCN1C(=O)[C@H](CCCNC(=N)N)NC(=O)[C@@H]1CCCN1C(=O)[C@H](CC(C)C)NC(=O)[C@H](Cc1ccc(O)cc1)NC(=O)[C@@H]1CCCN1C(=O)[C@@H]1CCCN1C(=O)[C@H](CCCCN)NC(=O)[C@H](CC(=O)O)NC(=O)[C@@H](N)C(C)C)C(=O)N[C@@H](CCCNC(=N)N)C(=O)N[C@H](CCCNC(=N)N)C(=O)N[C@H](C(=O)N[C@@H](Cc1ccc(O)cc1)C(=O)N[C@@H](CC(N)=O)C(=O)N[C@H](CCCNC(=N)N)C(N)=O)[C@@H](C)CC	broth microdilution	DSM 6247	18 h, 37 °C, 25% MHB2	128 µg/mL
CN[C@H](CC(C)C)C(=O)N[C@H]1C(=O)N[C@@H](CC(N)=O)C(=O)N[C@H]2C(=O)N[C@H]3C(=O)N[C@H](C(=O)N[C@H](C(=O)N[C@@H](CCCNC(=N)N)C(N)=O)c4cc(O)cc(O)c4-c4cc3ccc4O)[C@H](O)c3ccc(c(Cl)c3)Oc3cc2cc(c3O[C@@H]2O[C@H](CO)[C@@H](O)[C@H](O)[C@H]2O[C@H]2C[C@](C)(NCc3ccc(OCc4cn(CC(=O)N[C@H](C(=O)N[C@@H](CCN)C(=O)N[C@H]5CCNC(=O)[C@H]([C@@H](C)O)NC(=O)[C@H](CCN)NC(=O)[C@H](CCN)NC(=O)[C@H](CC(C)C)NC(=O)[C@@H](CC(C)C)NC(=O)[C@H](CCN)NC5=O)[C@@H](C)O)nn4)c(OC)c3)[C@H](O)[C@H](C)O2)Oc2ccc(cc2Cl)[C@H]1O	–	NRS402 VISA	–	1 µM
CC[C@H](C)[C@@H]1NC(=O)[C@H](CO)NC(=O)C(C)(CCCCN)NC(=O)[C@@H]2CSSC[C@@H](C(=O)N[C@@H](Cc3ccc(O)cc3)C(N)=O)NC(=O)[C@H](CCCCN)NC(=O)[C@@H]3CSSC[C@H](NC(=O)[C@H](CCCNC(=N)N)NC(=O)C(C)(CC(C)C)NC(=O)[C@H](CC(=O)O)NC(=O)[C@H](CC(=O)O)NC(=O)[C@H](CCC(=O)O)NC(=O)[C@H](CC(N)=O)NC(=O)[C@H](Cc4c[nH]c5ccccc45)NC(=O)[C@@H]4CCCN4C(=O)CNC(=O)[C@H](CC(N)=O)NC(=O)[C@@H](NC(=O)CNC(=O)[C@H](Cc4ccccc4)NC(=O)CN)CSSC[C@H](NC(=O)[C@H](Cc4ccc(O)cc4)NC(=O)CNC(=O)CNC(=O)[C@H](CCCCN)NC(=O)[C@H](Cc4ccc(O)cc4)NC(=O)CNC(=O)[C@H](CCCCN)NC1=O)C(=O)N[C@@H](C)C(=O)N[C@@H](CCCCN)C(=O)NCC(=O)NCC(=O)N[C@@H](Cc1ccccc1)C(=O)N[C@@H](C(C)C)C(=O)N3)C(=O)N[C@@H](Cc1c[nH]cn1)C(=O)NC(C)(C)C(=O)N[C@@H](Cc1c[nH]cn1)C(=O)N2 (stereo partly shown)	–	467, methicillin-resistant mecA, cation-adjusted Mueller Hinton broth	18 h, 37 °C	2 µM

Excerpt of the above:
Structure (SMILES)	test	system	setting	MIC
CC[C@H](C)[C@@H]1NC(=O)[C@H](CO)NC(=O)C(C)(CCCCN)NC(=O)[C@@H]2CSSC[C@@H](C(=O)N[C@@H](Cc3ccc(O)cc3)C(N)=O)NC(=O)[C@H](CCCCN)NC(=O)[C@@H]3CSSC[C@H](NC(=O)[C@H](CCCNC(=N)N)NC(=O)C(C)(CC(C)C)NC(=O)[C@H](CC(=O)O)NC(=O)[C@H](CC(=O)O)NC(=O)[C@H](CCC(=O)O)NC(=O)[C@H](CC(N)=O)NC(=O)[C@H](Cc4c[nH]c5ccccc45)NC(=O)[C@@H]4CCCN4C(=O)CNC(=O)[C@H](CC(N)=O)NC(=O)[C@@H](NC(=O)CNC(=O)[C@H](Cc4ccccc4)NC(=O)CN)CSSC[C@H](NC(=O)[C@H](Cc4ccc(O)cc4)NC(=O)CNC(=O)CNC(=O)[C@H](CCCCN)NC(=O)[C@H](Cc4ccc(O)cc4)NC(=O)CNC(=O)[C@H](CCCCN)NC1=O)C(=O)N[C@@H](C)C(=O)N[C@@H](CCCCN)C(=O)NCC(=O)NCC(=O)N[C@@H](Cc1ccccc1)C(=O)N[C@@H](C(C)C)C(=O)N3)C(=O)N[C@@H](Cc1c[nH]cn1)C(=O)NC(C)(C)C(=O)N[C@@H](Cc1c[nH]cn1)C(=O)N2 (stereo partly shown)	–	467, methicillin-resistant mecA, cation-adjusted Mueller Hinton broth	18 h, 37 °C	2 µM
CC[C@H](C)[C@H](NC(=O)[C@H](Cc1c[nH]c2ccccc12)NC(=O)[C@H](CCCCN)NC(=O)[C@H](CC(C)C)NC(=O)[C@@H](NC(=O)[C@@H](NC(=O)CNC(=O)[C@H](CCCCN)NC(=O)[C@H](Cc1c[nH]cn1)NC(=O)[C@H](CCCCN)NC(=O)[C@H](Cc1c[nH]c2ccccc12)NC(=O)[C@H](C)NC(=O)[C@H](CC(C)C)NC(=O)[C@H](CO)NC(=O)[C@@H](NC(=O)[C@H](Cc1ccc(O)cc1)NC(=O)[C@H](CCCCN)NC(=O)[C@H](CCC(N)=O)NC(=O)CNC(=O)[C@H](CCCCN)NC(=O)[C@@H](NC(=O)[C@H](C)NC(=O)[C@H](CC(C)C)NC(=O)[C@H](Cc1ccccc1)NC(=O)[C@H](CCC(N)=O)NC(=O)[C@@H](NC(=O)[C@H](CC(C)C)NC(=O)[C@H](CCCCN)NC(=O)[C@H](CCSC)NC(=O)[C@H](Cc1ccccc1)NC(=O)[C@H](C)NC(=O)[C@H](C)NC(=O)[C@@H](N)CCSC)[C@@H](C)CC)[C@@H](C)O)C(C)C)[C@@H](C)O)[C@@H](C)CC)C(=O)N[C@@H](CC(N)=O)C(N)=O	–	EMRSA 12845	24 h, 37 °C	32 µg/mL
